Results collected from several papers.
Each numbered part is a random draw from the data of one study; scales do not carry over between parts.

Set 1
Target: RING finger protein unkempt homolog, zinc fingers 1-6, GST-SBP tag (UNK, Homo sapiens, UniProt Q9C0B0, residues 30-357)
Method: RNA Bind-n-Seq
Form: RNA
Matrix: in vitro
Concentration: not given
Notes: RNA with constant flanks, ends assumed
Baseline: input RNA pool
Reading: higher = stronger binding
All sequences stand within: GGGAGUUCUACAGUCCGACGAUC … CAACAGAGGAUUGAGCAUCA
Target sequence (chain): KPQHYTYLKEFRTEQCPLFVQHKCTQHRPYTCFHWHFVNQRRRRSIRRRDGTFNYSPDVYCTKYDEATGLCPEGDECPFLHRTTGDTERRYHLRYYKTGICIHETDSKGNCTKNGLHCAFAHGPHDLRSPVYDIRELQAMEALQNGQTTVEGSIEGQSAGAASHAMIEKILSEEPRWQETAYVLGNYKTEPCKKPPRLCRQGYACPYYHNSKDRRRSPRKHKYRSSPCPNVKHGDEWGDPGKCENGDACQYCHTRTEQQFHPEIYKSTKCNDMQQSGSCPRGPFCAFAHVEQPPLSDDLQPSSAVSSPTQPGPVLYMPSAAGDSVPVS
Sequence | bound/input enrichment [ratio]
GGUUUAGGGUAGGGGUUAAUCUGUUGGGGGUUGAUGUGUUUAGCAAGAAGCUACUCCCCGCUUUUGCUAAAAUAUGGUUGGCACUGCCUCUUGUGGCACAGGCCAUAAUUGUUCCAUAGA | 1.49
GUGUCUAAAUGUUCUGAAGAAAUAAAGAACUAUAUUGAAGAACGUUCUGGAGAGGAUCCUCCCGUAAAGGGAAUUCCAGAAGACAAGAACCCCUUUAAAGAAAAAGGCAGCUGUGUUAUU | 0.157
GGUUUCAAUGAAACUGAUGAUUUAAAGAGAGCCGAAAGUAUGCUUCAACAAGCAGAUAAAUCCGGUUGCAGACAGUUCGUUACUCCAGCUGAUGUUGUCAGCGGAAACCCCAAACUGAAC | 0.0918
UUGGUGUCCAGAGCUCACCAGCUGGUGAUGGAGGGAUAUAACUGGUGCCAUGACCGGAACGCCGUAACAAUUUUCAGUGCUCCAAACUAUUGCUAUCGUUGUGGUAACCAAGCUGCAAUC | 0.0866
GAAAUGAAGUACUACAUAGUGCAUUUGAAACGCCACUUUAUGUUUCGAAACCAUCUCUGUUCCGUGUUUGAAAUGCUGUCCUAUAAUCUCUAUGAUUUGUUGAGAAACACCAACUUCCGA | 0.16
CUUACCAAACACUUGCUGAAGUCAGUGUGUACUGAUAUCACUAACCUCAUUUUCAACUUCUCCGCUUCGGAUUUAAUGAUGGCAGUAGACGAUCCUGCAGCCAUUACAAGUGAAAUAAGA | 0.325
GGAAUAUUAGGACUGAGGCAACACCUAGGGACACCAAGUGAUGAAGAUAAUGAUUCCUCUUUCCGUGAUUGUCUUUCUUCUCCUUCAUCUAGUCUGCAUUUUGGAGAUUCUGAUACUGUG | 0.263
UGCUACCAGACACUGACAGGGAUCAAGUUUGUGGUUCUAGCAGAUCCUAGGCAAGCUGGAACCGAUUCUCUUCUCCGAAAGAUUUAUGAGAUUUACUCAGACUUUGCCCUCAAGAAUCCA | 0.0995
GCUGCACUCCGUAACUCAACAUGGCAUGCCUUUCUCUCCGUAAACUAUUUAGUGAGAUUUUCCGGGACUAUUUUUCAGUAUCUCUGUACCUGUUAAAGGGGGUGCUUUUCGAUCUAAAAA | 0.249
AGUGAAGAAAAUGCUGAGCCGGAUCUCGAUGACAAUGAGGAGGAGGAGGAGCCUGCUGCCGAAAUUGAACCUGAGCCAGAGCCUCAGCCCCAGCCUCCGCCUCCACCUCAGCCUGUGGCC | 0.109
ACUCUGUGGUUAGUAAGAGGCCUUUGCUCAGGUCCCAUUCUGUUCCUCUUCCCUGCUGAGUACCGGCCGCUGGAUCCUGCGGUCCACUUUGCUUACUAUCUAACUGCCUUUGAUUGAUUG | 0.123

Set 2
Target: Hepatocyte nuclear factor 3-alpha (Foxa1, Mus musculus, UniProt P35582, residues 1-468, full length assumed)
Chain of UniProt P35582 (whole entry, looked up): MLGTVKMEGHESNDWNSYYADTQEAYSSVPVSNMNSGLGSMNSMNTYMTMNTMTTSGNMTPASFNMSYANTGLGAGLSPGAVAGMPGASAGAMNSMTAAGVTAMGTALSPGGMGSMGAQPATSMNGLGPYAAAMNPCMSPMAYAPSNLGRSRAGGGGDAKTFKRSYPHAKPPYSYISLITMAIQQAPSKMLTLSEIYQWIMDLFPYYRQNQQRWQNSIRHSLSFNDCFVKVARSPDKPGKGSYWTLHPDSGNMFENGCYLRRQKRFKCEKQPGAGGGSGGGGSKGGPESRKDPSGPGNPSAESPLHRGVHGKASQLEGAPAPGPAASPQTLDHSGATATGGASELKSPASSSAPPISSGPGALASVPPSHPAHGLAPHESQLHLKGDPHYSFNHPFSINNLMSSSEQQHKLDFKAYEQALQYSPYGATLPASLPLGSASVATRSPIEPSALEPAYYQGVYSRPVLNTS
Method: EMSA with sequencing
Form: double-stranded DNA, one strand shown
Matrix: in vitro
Concentration: 10 and 20 nM
Notes: whole designed probe, mean of two concentrations, ends assumed
Baseline: negative control set to 0
Reading: higher = stronger binding
All sequences stand within: GTGAGCGGTGCCCATTGATGGGGAAC … TTTCACTGGGATCGTGGGGAC
Sequence | normalised bound fraction
AAGACCGGCAGCCTCTGGTTCCTGTTGTTGTTTTTTAAGTGCGCGGAGGCGCAGGCGAAACTCGGAGTTTCCAACTCGTTGCTTATTTTGCAAAGTAATCTAGCAAATGTTATGTGCATAACCTTCGCTGTCTCGCTAAAGGTCAGCGCGCCCCTGCTCATTTCCCGGGCTGCCTTTTGGGGGCACTCTGATG | 0.00983 ratio
GGTCAGAGAATGCTAATCAGCCATGAAGTGGGCTTGCCATGACTCTGACACTGTATCTCCTGGTGCACTCTGCGGTAGGTGCATCTTTCCAGAGTAAATACAAAGTGAACTTGACGGGAAAGGAGACCTTAGCAGTCCTACAAAGGCAATTTTGCAAGCTGTCTGGCTGTGGAATTAGTGGAATGTTTTCTCA | 0.184 ratio
GGAAGTCTGCAATGCTTTGAACAGCAGGGTGTGGGAGGAAGTGTTGGCCCTACTCACCCTGCCTGACCTCCCTGGGCTGTGACGTCAGAGCTCTGTTTACATAGCTGAGGGACTGGGAATGCTGGAGTGGAGGAAGGAGGTGATGAATGATTCAGGAGGACACACAACATCCCTGCTTTTCTTTCCTGCTGGC | 0.4 ratio
ATCTTCCCCCTCTTCCTTGCCCCACCAGCTCACCTTCCCGGGTTGTTTACTTTGAGCAAAGTAAACAAAGCCGGCATTCGTTAACCCTCTTCTGGCGCAAACTGCACATTGGTCTGGATGAATCATGGTCCTTTGGCGACGCCAGGCTCCGGGAGAGCAAAGCACCGTGTCAGGGCCATGATCCGGGGTGGCC | 0.501 ratio
CCTCTCCATTCTGATTTCCTTCAGACAAAATTATTTCTATCTTCGACATCAACAACTCTCCTGAAAAACATATAGTCAGTTCATCCAATTTCAAAATTACTCTTTACTCTTGAGCACAATTTCTTGCCTACCAATTTATGAGCTCTTTCCAGTGAAAGTCCATATCTTCCATTCTTCTGTTACCCCTTTGGGG | -0.068 ratio
TGGCCTTCTGGCCCTATCTGCTCCGTGCCCAACCCAGCGCCCCGCACAGTCGGAGCTTTGTAAATACGAGGTGACTGTCTGCCTACAAACTTTGTAAACATCACTTGAAATGGCCGCAGGGTATTGTGACATGGCCATACCACTATTTGTTTGCTATTGAATTTGTACTTCCCTGCCTTACTTTTGCTATTGC | 0.387 ratio

Set 3
Target: RNA binding protein fox-1 homolog 2, RRM domain, GST-SBP tag (RBFOX2, Homo sapiens, UniProt O43251-10, residues 100-194)
Method: RNA Bind-n-Seq
Form: RNA
Matrix: in vitro
Concentration: 365 nM
Notes: natural RNA segment, single round, ends assumed
Baseline: no-protein control
Reading: higher = stronger binding
All sequences stand within: GGGAGUUCUACAGUCCGACGAUC … UGGAAUUCUCGGGUGCCAA
Sequence | RBNS enrichment (R)
CUUCGAUUCCUGGUUAUUUGGACCAUUGACUCAUCAUGGACUAUAUAAUGUAAUAAGAUUCUUUUCUCUUAAGGUAUCCUUGAAUUACACCAAAGAACCAGAAACUUAAU | 0.553
UGCAUGGUGACCCCACAUUGCACUGGUAAACCAUUUGAGUCCCACUCUUCAUCCUGGAAGUGGGAACUGGAGUCCCACCCACAGUGCAUUCAGAAAGCAUGCUGUGUGGG | 5.5
AAAUGUCUUGAUGGAAGGUAUUAAACUAUUUGCCUGUUGUACAAAGAAAUGUUAAGACUCGUGAAAAGAAUUACUAUAAGGUACUGUGAAAUAACUGCGAUUUUGUGAGC | 0.377
UCUUACUGAAGAGGACUCUAGCUCUCCCUGCCUGCUCUGAACUUUACUUCCCAGACCAGGUGUCCGGCUGGGAACAAACCACUAAUUUGUCACUGGACUGUCUCUGGGCC | 1.73
UAUGCUGGCAAUAUAGGAUGGUAUGUAAUGGACAGAACUGAUGCAGAUGGUUGAAUGCGCUUGUACUAUAUGCUAAAAUAUGGAAAAGGAAAAAAAAAUCUCACAAGUUC | 14.1
AGAUUUUGUGUAGGAAAUGUGCAUAGAGUUUGUAUUUUAUUUUUAUUAGCAGCUGAAAUGCCUUUGGUUUUGGCUUCUCUCUCUCCCUCUCUCUCUCUGUCUCUCCUUCU | 0.843
AACAGGCAGUUCUUGGAGAAGAAAGAGCAUUUCUUUAAGUACCUGGGGAAUACAGCUCUCAGUGAUCAGCAGGGAGUUUAUUUGAGGACAUCAGUCACCUUUGGGGUUGC | 0.659
CUUACAAUGUCAGUAUUUGGGAUGUCGCUGCAUUUUUUUUUUCAAUUUAUUUGGAGUCUCCCUUUAUUCCUGCCCCCGCCCCCAGAUAUAUGAAAAUAUGCAAUACCUGC | 0.669
AGCAGGUAGGUCAAGAGAUGGGCCAUAUAUAUACUGAUAUACUGGUUGACCUGCCAUCACCGCUCACUGCCAUGUGAAUAGAACUGUUUAUGACUGCAAUUUCUUUUUUC | 2.71

Set 4
Target: Runt-related transcription factor 1, full length (RUNX1, Homo sapiens, UniProt Q01196-8, residues 1-480)
Method: protein-binding microarray
Form: hairpin DNA
Matrix: in vitro
Concentration: not given
Notes: whole hairpin DNA, median over replicate spots
Baseline: not given
Reading: higher = stronger binding
Sequence | median fluorescence
GAGGCCTGTCGCGGTAGGCCTCCTGGCCTACCGCGACAGGCCTCACACTC | 1960 a.u.
GAGGCCTGTCCGGGTTGGCCTCCTGGCCAACCCGGACAGGCCTCACACTC (5mC at 11) | 1810 a.u.
CTCAGTTCTGTGGGGTGGACTCCTGTCCACCCCACAGAACTGAGACACTC | 1950 a.u.
GAGGCCCAACCGCAACGGCCTCCTGGCCGTTGCGGTTGGGCCTCACACTC | 5260 a.u.
CTCAGCTCTGTGGGCTGGACTCCTGTCCAGCCCACAGAGCTGAGACACTC | 1910 a.u.
GAGGCCTGTCGCGGTTGGCCTCCTGGCCAACCGCGACAGGCCTCACACTC (5mC at 34) | 2760 a.u.
GAGGCCTGACGCGGTTGGCCTCCTGGCCAACCGCGTCAGGCCTCACACTC | 2210 a.u.
GAGGCCTGTCCCGGTTGGCCTCCTGGCCAACCGGGACAGGCCTCACACTC (5mC at 11) | 1850 a.u.
GAGGCCCAACCGCGACAGCCTCCTGGCTGTCGCGGTTGGGCCTCACACTC (5mC at 13 31) | 5600 a.u.
CTCAGTTCTGCGGGCTGGACTCCTGTCCAGCCCGCAGAACTGAGACACTC (5mC at 11) | 2000 a.u.
GAGGCCTGTTGTGGCTGGCCTCCTGGCCAGCCACAACAGGCCTCACACTC | 2030 a.u.
GAGGCCCAACCGCCGCAGCCTCCTGGCTGCGGCGGTTGGGCCTCACACTC (5mC at 14 30) | 2950 a.u.
GAGGCCTGTTGTGTTTGGCCTCCTGGCCAAACACAACAGGCCTCACACTC | 1620 a.u.
CTCAGCGCTGTGGGCTGGACTCCTGTCCAGCCCACAGCGCTGAGACACTC | 1940 a.u.
GAGGCCTGTTGTGGCGGGCCTCCTGGCCCGCCACAACAGGCCTCACACTC | 2060 a.u.
GAGGCCTATTGTGGTTGGCCTCCTGGCCAACCACAATAGGCCTCACACTC | 3070 a.u.
GAGGCCTGTCGCGGTTGGGCTCCTGCCCAACCGCGACAGGCCTCACACTC (5mC at 26) | 2860 a.u.
GAGGCCCAACCGCCGCAGCCTCCTGGCTGCGGCGGTTGGGCCTCACACTC | 2930 a.u.
CTCAGTTCCGTGGGCTGGACTCCTGTCCAGCCCACGGAACTGAGACACTC (5mC at 9 35) | 2130 a.u.

For quick reference, copied from above (set 2):
Sequence | normalised bound fraction
GGTCAGAGAATGCTAATCAGCCATGAAGTGGGCTTGCCATGACTCTGACACTGTATCTCCTGGTGCACTCTGCGGTAGGTGCATCTTTCCAGAGTAAATACAAAGTGAACTTGACGGGAAAGGAGACCTTAGCAGTCCTACAAAGGCAATTTTGCAAGCTGTCTGGCTGTGGAATTAGTGGAATGTTTTCTCA | 0.184 ratio
GGAAGTCTGCAATGCTTTGAACAGCAGGGTGTGGGAGGAAGTGTTGGCCCTACTCACCCTGCCTGACCTCCCTGGGCTGTGACGTCAGAGCTCTGTTTACATAGCTGAGGGACTGGGAATGCTGGAGTGGAGGAAGGAGGTGATGAATGATTCAGGAGGACACACAACATCCCTGCTTTTCTTTCCTGCTGGC | 0.4 ratio
ATCTTCCCCCTCTTCCTTGCCCCACCAGCTCACCTTCCCGGGTTGTTTACTTTGAGCAAAGTAAACAAAGCCGGCATTCGTTAACCCTCTTCTGGCGCAAACTGCACATTGGTCTGGATGAATCATGGTCCTTTGGCGACGCCAGGCTCCGGGAGAGCAAAGCACCGTGTCAGGGCCATGATCCGGGGTGGCC | 0.501 ratio
CCTCTCCATTCTGATTTCCTTCAGACAAAATTATTTCTATCTTCGACATCAACAACTCTCCTGAAAAACATATAGTCAGTTCATCCAATTTCAAAATTACTCTTTACTCTTGAGCACAATTTCTTGCCTACCAATTTATGAGCTCTTTCCAGTGAAAGTCCATATCTTCCATTCTTCTGTTACCCCTTTGGGG | -0.068 ratio
TGGCCTTCTGGCCCTATCTGCTCCGTGCCCAACCCAGCGCCCCGCACAGTCGGAGCTTTGTAAATACGAGGTGACTGTCTGCCTACAAACTTTGTAAACATCACTTGAAATGGCCGCAGGGTATTGTGACATGGCCATACCACTATTTGTTTGCTATTGAATTTGTACTTCCCTGCCTTACTTTTGCTATTGC | 0.387 ratio
